Experimental data pooled from the literature.
Each numbered part is a random draw from the data of one study; scales do not carry over between parts.

Series 1 — technique: aptamer microarray, sandwich; form: DNA with 2'F-ANA; matrix: in vitro; tested at: 200 nM; added: Cy3 exosite-II aptamer, 400 nM; reading: higher = stronger binding; oligonucleotide: GGTTGGTGTGGTTGG
Target: Prothrombin, mature alpha-thrombin (F2, Homo sapiens, UniProt P00734)
Notes: whole 15-mer aptamer, many near background
For `2'F-ANA at 1 3 4 5 8 9 12 13 14 15`, “mean fluorescence intensity” read 47 a.u.
`2'F-ANA at 4 7 10 12 15` — result for “mean fluorescence intensity”: 131 a.u.
`2'F-ANA at 1 2 5 6 7 8 11 12 14`: “mean fluorescence intensity” 53.6 a.u.
Under “mean fluorescence intensity”, `2'F-ANA at 1 4 6 7 8 10 12 14 15` is recorded as 47.3 a.u.
Under “mean fluorescence intensity”, `2'F-ANA at 4 5 6 7 10 11` is recorded as 49 a.u.
`2'F-ANA at 2 3 4 5 10 12 15`: “mean fluorescence intensity” 64.8 a.u.
`2'F-ANA at 1 2 8 11 12`: “mean fluorescence intensity” 359 a.u.
For `2'F-ANA at 1 3 11 13 15`, “mean fluorescence intensity” read 292 a.u.
`2'F-ANA at 1 2 3 5 7 11 12 15` — result for “mean fluorescence intensity”: 96 a.u.
For `2'F-ANA at 5 9 10 12 13 14 15`, “mean fluorescence intensity” read 44.9 a.u.
`2'F-ANA at 3 4 5 6 8 13 15` — result for “mean fluorescence intensity”: 63.6 a.u.
For `2'F-ANA at 2 3 4 5 7 8 9 12 14`, “mean fluorescence intensity” read 55.6 a.u.
Under “mean fluorescence intensity”, `2'F-ANA at 2 8 9 13` is recorded as 366 a.u.
`2'F-ANA at 1 2 9 10`: “mean fluorescence intensity” 106 a.u.
Under “mean fluorescence intensity”, `2'F-ANA at 4 8 10 12 13 14 15` is recorded as 59.7 a.u.
Under “mean fluorescence intensity”, `2'F-ANA at 2 3 5 9 10 11 14 15` is recorded as 69.3 a.u.
`2'F-ANA at 1 2 3 4 7 9 12 14`: “mean fluorescence intensity” 72.5 a.u.
`2'F-ANA at 3 5 6 8 9 10 11 12 15` — result for “mean fluorescence intensity”: 89.1 a.u.
`2'F-ANA at 7 9 10 14` — result for “mean fluorescence intensity”: 118 a.u.
`2'F-ANA at 1 6 8 12 13 14 15`: “mean fluorescence intensity” 73.4 a.u.
`2'F-ANA at 3 5 6 11 12 13`: “mean fluorescence intensity” 156 a.u.
For `2'F-ANA at 2 6 7 8 10 12 13 14 15`, “mean fluorescence intensity” read 120 a.u.
`2'F-ANA at 1 5 6 7 8 9 10 13 14`: “mean fluorescence intensity” 50.1 a.u.
For `2'F-ANA at 4 7 8 13 14`, “mean fluorescence intensity” read 130 a.u.
For `2'F-ANA at 1 3 5 6 8 9 10 13`, “mean fluorescence intensity” read 45.7 a.u.

Series 2 — technique: RNA Bind-n-Seq; form: RNA; matrix: in vitro; tested at: 200 nM; notes: whole 134-nt RNA, ends assumed; added: 150 mM LiCl; relative to: input library; reading: higher = stronger binding; library: 7-deaza-guanosine replaces G
Target: Ras GTPase-activating protein-binding protein 1, full length (G3BP1, Homo sapiens, UniProt Q13283)
Sequence of UniProt Q13283 (whole entry, looked up): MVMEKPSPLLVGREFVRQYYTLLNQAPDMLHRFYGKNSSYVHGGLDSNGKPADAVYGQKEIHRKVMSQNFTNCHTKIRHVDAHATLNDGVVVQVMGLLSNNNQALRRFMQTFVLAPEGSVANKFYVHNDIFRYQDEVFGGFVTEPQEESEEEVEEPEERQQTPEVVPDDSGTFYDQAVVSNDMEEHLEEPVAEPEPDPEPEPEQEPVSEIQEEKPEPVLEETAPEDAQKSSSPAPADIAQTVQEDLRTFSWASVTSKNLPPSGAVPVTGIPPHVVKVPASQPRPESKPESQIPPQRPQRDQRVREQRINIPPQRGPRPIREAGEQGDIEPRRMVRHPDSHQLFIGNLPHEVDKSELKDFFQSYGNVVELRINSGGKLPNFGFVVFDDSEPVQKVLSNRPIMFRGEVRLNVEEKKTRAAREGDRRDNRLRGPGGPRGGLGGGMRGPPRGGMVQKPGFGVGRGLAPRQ
Shared flanks, not repeated: GGGAGUUCUACAGUCCGACGAUC … UGGAAUUCUCGGGUGUCAAGG
The log2 enrichment of `UAGGUGUUAUCUUCAGGAAGGCACACUGGACCUGCUAAAUUAACAAAUGGAAAGAAAGCGUAAGUACUUGAAGACGUUUACAACUUCAGA` is reported as -2.53.
With `UCCUGUGCUACACAUCGUAUGUACCGAAUCGGGUUUGGGAAAAAAAGGGUUUUUUUGGGAAAGUAUUAUGUUACGCCGUUCGGAUCUGCA` the log2 enrichment was -0.566.
With `ACCAUGCAGGUGGGCAUCUUUGGGAAGUGGGGCAAGGGGGGGAUAGGGAGGGGGGUAACACUUUGGGAACCGGUGGUCCCAGGUCGUUUC` the log2 enrichment was 0.106.
For `ACCAUGCAGGUGGGCAUCUUUGGGAAGUGGGGCAAGGGGGGGAUAGGGAGGGGGGUAACACUUUGGGAACAGGUGGUCCCAGGUCGUUUA`, the log2 enrichment was 0.121.
For `GCAGGAAGUAAAAACAAAUGGAAAUGCUUCGGAUAGUGGCAGGGGUGGGGGUUGUUAAGGAAAGGGUGGGAUGGGAGUGGGUAAAGAGUU`, the log2 enrichment was 0.296.
`CCUGUGCUACACAUCGUAUGUACCGAAUCGGGGAAAAAGGGGAAAGGGGAAAAAAAGGGGAAAGUAUUAUGUUACGCCGUUCGGAUCUGC` gave a log2 enrichment of 0.909.
`CAAGUCCUGUGCUACACAUCGUAUGUACCGAAUCGGUUUUGGUUUUGGUUUUGGGAAAGUAUUAUGUUACGCCGUUCGGAUCUGCACUUC` has a log2 enrichment of -0.956.
`CACAGACAACACGCACCCACACAGACACAGAGGGAAGGGGUUGGGAUGGGGACAGGGUGCACAGCAUGGCGGGGUAGGACCCCAGCCCCU` has a log2 enrichment of 0.154.
With `GCAGGAAGUAAAAACAAAUGGAAAUGCUUCGAAUAGUGGCAGGGGUGGGGGUUGCUAAGGAAAGGGUGGGAUGGGAGUGGGUAAAGAGUU` the log2 enrichment was 0.0969.
`ACCAUGCAGGUGGGCACCUUUGGGAAGUGGGGCAAGGGGGGGAUAGGGAGGGGGGUAACACUUUGGGAACAGGUGGUCCCAGGUCGUUUC` gave a log2 enrichment of 0.0922.
For `UCAAGUCCUGUGCUACACAUCGUAUGUACCGAAUCGGGAAAGGAAAGGGAAAGGAAAGUAUUAUGUUACGCCGUUCGGAUCUGCACUUCC`, the log2 enrichment was -0.501.

Series 3 — technique: protein binding microarray; form: double-stranded DNA, one strand shown; matrix: in vitro; tested at: not given; relative to: not given; reading: higher = stronger binding
Target: Histone acetyltransferase KAT6A, both winged helices, GST fusion (KAT6A, Homo sapiens, UniProt Q92794, residues 1-181)
Notes: 8-mer, flanks averaged, mean of 2 arrays, mostly near background
Residues (chain): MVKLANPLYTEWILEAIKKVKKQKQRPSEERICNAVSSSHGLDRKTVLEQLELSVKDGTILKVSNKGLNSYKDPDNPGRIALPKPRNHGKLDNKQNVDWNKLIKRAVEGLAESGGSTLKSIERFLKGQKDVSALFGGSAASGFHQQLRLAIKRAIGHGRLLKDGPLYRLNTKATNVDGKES
The E-score of `AAGAATGA` is reported as -0.145.
For `GGAATAAC`, the E-score was 0.0345.
With `ACACAGAA` the E-score was -0.125.
`CCAGCAGA` gave an E-score of -0.114.
For `AACATCAA`, the E-score was 0.0241.
The E-score of `ATAAGTTA` is reported as -0.162.
The E-score of `GAATCGGA` is reported as 0.0709.
`ATTATAAT` has an E-score of -0.0439.
With `ATCCAGTG` the E-score was -0.0398.
With `AGCTGCTG` the E-score was -0.204.
`TCGTTGAA` has an E-score of -0.169.
`ATAACTGG` has an E-score of -0.143.
`ATAGACGC` has an E-score of 0.194.
For `CTACCAGC`, the E-score was -0.174.
`CTACCCCA` gave an E-score of -0.187.
`CTTTCTAA` has an E-score of -0.0208.
`AGCTCACT` has an E-score of -0.159.
`CCACTAAC` gave an E-score of -0.239.
The E-score of `GTAGTGCA` is reported as -0.031.
`ACTCTTTC` gave an E-score of -0.101.

Series 4 — technique: RNA Bind-n-Seq; form: RNA; matrix: in vitro; tested at: 365 nM; relative to: no-protein control; reading: higher = stronger binding
Target: RNA binding protein fox-1 homolog 2, RRM domain, GST-SBP tag (RBFOX2, Homo sapiens, UniProt O43251-10, residues 100-194)
Notes: natural RNA segment, single round, ends assumed
Shared flanks, not repeated: GGGAGUUCUACAGUCCGACGAUC … UGGAAUUCUCGGGUGCCAA
Target sequence (chain): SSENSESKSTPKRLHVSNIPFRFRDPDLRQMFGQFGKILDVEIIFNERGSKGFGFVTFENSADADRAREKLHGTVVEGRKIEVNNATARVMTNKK
`CGUUUAUAUUGUAGCAGUUACAGCUCUGUAGUUUAUGAUGCAAAUCUGCCAAGAGAGAUGUAUGUGUCACUGCAUGGCUUCUGAAAGCAGGAUGAAUUUUCUGCAGCUGU` — result for “RBNS enrichment (R)”: 0.431.
`GAAUAUUACUUUAACAUUCAGAUGGAUCAUAACUAAUUCGACUAGGGUGUUUUUCCUGAGUAGGAGUUAAGUUUGGAACUGGUGGUCUUGAAUGUUAAACAUGGAGUGUG` — result for “RBNS enrichment (R)”: 0.488.
`CGCCUCCCCCAGGGACCGGCGGACCCCAGCCAUCCAGGGGGCAAGAGGAAUUACGUGCUCUGUGGGUCUCCCCCAACGCGCCUCGCCGGAUCUGAGGGAGAACAAGACCG` — result for “RBNS enrichment (R)”: 0.394.
Under “RBNS enrichment (R)”, `GGAAGAAGCGUGAAACUUUUCCCAGGAGAGCGAGGAGCACAGCGUCUUCGUGCCUGGCUCAUGGUAGAGCACAGUCAUGCACUGACCAAUGGAGGCAGCGUGUACACAUC` is recorded as 0.323.
For `CAUUCUUGUGUAUUUAAUAACAAAGGUGGCCCUCUUCAUGUCUGCUCCUCCCUACAGGCACUGUCUGUCUUCACAGGGCUUGGUCUUUCUGCUGCCACUUGUGAAAACCG`, “RBNS enrichment (R)” read 0.268.
`GAGCGCCCCCUCCCAUUGUAUAGCCUUGAACCCGAUUGUGAAUACAAUGUAGCAACUUCGCUGGCGCCUGCCCCGCACUCCCCGUCCCGUCCACUUCUGAAACUCCUGUU` — result for “RBNS enrichment (R)”: 1.61.
Under “RBNS enrichment (R)”, `AUAAAAGAAAAAAAUAUGUGGUCUGUGAAAUCUAAAAUAUUUACUACCUGGCCUGUUGGAGGAAAGGUUUGCCAAUCUCUGUUUUAUACCAUUAACUAUGAGAUUAACAA` is recorded as 0.476.
Under “RBNS enrichment (R)”, `AGACUUGUGUGAAUGUACAAAGGUUUGCAUUGUAGCUGUUAGAACAGCACAGCAGGGAGUACACGAACUGAUAGAGACCUGUGCUCAGCAGCCAGGUUCUUCAGGUGCUU` is recorded as 0.384.
`UAAAUGUUUGGUUUAUAUAUUUUCUUUAAAAAUCCUGGGCUGGCACAUUGACUGGGAAACCUGAGUGAGACCCAGCAACUGCUUCUCUCCCUUCUCUCUCCUGAGGUGAA` — result for “RBNS enrichment (R)”: 0.724.
`CACAAGGAUAAUGCUGCAUUUUUCUGUCAGAGUCACACAUGUUUUUCUGGAGAGGUUAUUUCUGCAUGGAAACUCAACUUCUUGGAUUAGCUAUCUUGAGUGAAAGUCCU` — result for “RBNS enrichment (R)”: 1.39.
For `UGAGGCCUGGUUCUGGAUCUGGGACCAUUGCUGGAUGACUUGAAUCUUAGUGAAGUCCUUUGUUGGGCUAUGGGCUAGCAUGUGGCUCACUGCUGUAAUGCUAGUAUUUC`, “RBNS enrichment (R)” read 0.756.
`GUAUGUAUGUUUCUGCCCACUAAUUUUGAGCAGCCAUAUUAUGAAUUAAAUCGUCACAGCCAAGUAAUAACCCAAGAAUGGUAUGAGUUUCAUGUGUAAUAGCUCAAAUG` — result for “RBNS enrichment (R)”: 0.389.

Some of these lines once more (series 1):
`2'F-ANA at 3 5 6 11 12 13`: “mean fluorescence intensity” 156 a.u.
`2'F-ANA at 1 2 5 6 7 8 11 12 14`: “mean fluorescence intensity” 53.6 a.u.
`2'F-ANA at 4 7 10 12 15` — result for “mean fluorescence intensity”: 131 a.u.
Under “mean fluorescence intensity”, `2'F-ANA at 1 4 6 7 8 10 12 14 15` is recorded as 47.3 a.u.
For `2'F-ANA at 1 3 5 6 8 9 10 13`, “mean fluorescence intensity” read 45.7 a.u.
`2'F-ANA at 1 5 6 7 8 9 10 13 14`: “mean fluorescence intensity” 50.1 a.u.
`2'F-ANA at 1 2 3 5 7 11 12 15` — result for “mean fluorescence intensity”: 96 a.u.
`2'F-ANA at 1 6 8 12 13 14 15`: “mean fluorescence intensity” 73.4 a.u.
For `2'F-ANA at 5 9 10 12 13 14 15`, “mean fluorescence intensity” read 44.9 a.u.
For `2'F-ANA at 2 6 7 8 10 12 13 14 15`, “mean fluorescence intensity” read 120 a.u.
